# Experimental data pooled from the literature.
# A part holds a random share of what one study measured.
# Chain of UniProt P31152 (whole entry, looked up): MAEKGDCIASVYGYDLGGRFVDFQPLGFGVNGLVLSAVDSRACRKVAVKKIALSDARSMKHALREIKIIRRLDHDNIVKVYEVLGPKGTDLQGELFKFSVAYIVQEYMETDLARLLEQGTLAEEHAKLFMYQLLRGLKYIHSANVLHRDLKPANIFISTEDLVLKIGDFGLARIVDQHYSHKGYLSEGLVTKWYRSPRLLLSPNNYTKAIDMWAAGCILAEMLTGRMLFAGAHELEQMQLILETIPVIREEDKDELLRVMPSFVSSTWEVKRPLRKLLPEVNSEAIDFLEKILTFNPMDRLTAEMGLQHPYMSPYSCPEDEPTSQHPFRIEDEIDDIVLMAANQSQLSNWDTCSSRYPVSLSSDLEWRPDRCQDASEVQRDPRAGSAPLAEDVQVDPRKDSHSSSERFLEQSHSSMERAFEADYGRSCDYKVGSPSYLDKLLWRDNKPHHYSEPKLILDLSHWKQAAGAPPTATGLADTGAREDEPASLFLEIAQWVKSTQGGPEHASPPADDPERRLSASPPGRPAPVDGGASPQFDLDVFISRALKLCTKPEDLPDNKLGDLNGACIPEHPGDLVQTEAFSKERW
# Chain of UniProt P49674 (whole entry, looked up): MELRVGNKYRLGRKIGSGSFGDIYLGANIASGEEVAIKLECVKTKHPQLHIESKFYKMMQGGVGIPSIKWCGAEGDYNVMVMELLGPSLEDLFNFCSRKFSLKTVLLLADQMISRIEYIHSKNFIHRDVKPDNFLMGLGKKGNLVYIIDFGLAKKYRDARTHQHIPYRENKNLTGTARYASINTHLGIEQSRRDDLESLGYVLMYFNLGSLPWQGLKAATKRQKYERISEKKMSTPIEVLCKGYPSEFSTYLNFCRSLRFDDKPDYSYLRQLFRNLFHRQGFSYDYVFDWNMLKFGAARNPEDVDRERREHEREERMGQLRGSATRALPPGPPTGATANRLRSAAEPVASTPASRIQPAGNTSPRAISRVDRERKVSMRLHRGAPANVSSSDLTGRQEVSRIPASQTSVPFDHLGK
# Chain of UniProt Q13554 (whole entry, looked up): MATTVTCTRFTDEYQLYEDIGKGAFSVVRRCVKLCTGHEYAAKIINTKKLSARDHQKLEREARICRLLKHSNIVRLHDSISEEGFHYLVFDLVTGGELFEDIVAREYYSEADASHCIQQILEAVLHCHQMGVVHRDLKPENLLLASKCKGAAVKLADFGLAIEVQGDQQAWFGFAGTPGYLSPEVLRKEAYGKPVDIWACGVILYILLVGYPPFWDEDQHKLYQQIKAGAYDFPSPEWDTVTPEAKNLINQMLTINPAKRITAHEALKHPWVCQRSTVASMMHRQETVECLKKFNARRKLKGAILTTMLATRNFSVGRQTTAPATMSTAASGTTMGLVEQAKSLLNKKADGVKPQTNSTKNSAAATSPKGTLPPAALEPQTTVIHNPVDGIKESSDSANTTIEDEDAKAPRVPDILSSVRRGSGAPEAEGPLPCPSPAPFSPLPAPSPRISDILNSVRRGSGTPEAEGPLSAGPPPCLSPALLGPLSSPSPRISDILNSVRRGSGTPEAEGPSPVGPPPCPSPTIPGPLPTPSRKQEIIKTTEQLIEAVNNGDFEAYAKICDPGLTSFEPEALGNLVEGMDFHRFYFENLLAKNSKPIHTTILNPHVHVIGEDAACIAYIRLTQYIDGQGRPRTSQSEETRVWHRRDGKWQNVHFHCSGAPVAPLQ
# Chain of UniProt P07332 (whole entry, looked up): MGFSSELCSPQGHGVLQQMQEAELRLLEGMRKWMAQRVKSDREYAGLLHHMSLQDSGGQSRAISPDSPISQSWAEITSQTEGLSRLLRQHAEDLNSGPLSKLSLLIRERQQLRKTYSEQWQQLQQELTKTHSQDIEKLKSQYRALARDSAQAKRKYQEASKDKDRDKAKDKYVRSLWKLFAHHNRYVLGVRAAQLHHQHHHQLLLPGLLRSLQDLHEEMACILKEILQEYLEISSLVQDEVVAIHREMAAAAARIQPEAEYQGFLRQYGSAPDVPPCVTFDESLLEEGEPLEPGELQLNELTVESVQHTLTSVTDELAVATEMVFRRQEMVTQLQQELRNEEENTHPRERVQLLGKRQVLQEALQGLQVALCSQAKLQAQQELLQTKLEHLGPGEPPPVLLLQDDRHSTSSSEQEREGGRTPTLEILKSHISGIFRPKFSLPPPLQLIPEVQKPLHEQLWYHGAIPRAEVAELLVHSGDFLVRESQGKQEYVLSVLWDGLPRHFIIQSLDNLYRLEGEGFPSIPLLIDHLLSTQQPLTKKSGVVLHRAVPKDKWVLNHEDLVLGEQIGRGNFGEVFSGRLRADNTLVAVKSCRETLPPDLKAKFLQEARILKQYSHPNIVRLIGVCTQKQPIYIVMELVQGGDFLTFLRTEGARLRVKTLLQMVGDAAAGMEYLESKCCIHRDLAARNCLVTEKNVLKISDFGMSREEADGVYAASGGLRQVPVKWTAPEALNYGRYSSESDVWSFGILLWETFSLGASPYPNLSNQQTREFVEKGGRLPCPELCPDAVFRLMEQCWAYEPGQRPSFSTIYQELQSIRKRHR
# Chain of UniProt Q5VT25 (whole entry, looked up): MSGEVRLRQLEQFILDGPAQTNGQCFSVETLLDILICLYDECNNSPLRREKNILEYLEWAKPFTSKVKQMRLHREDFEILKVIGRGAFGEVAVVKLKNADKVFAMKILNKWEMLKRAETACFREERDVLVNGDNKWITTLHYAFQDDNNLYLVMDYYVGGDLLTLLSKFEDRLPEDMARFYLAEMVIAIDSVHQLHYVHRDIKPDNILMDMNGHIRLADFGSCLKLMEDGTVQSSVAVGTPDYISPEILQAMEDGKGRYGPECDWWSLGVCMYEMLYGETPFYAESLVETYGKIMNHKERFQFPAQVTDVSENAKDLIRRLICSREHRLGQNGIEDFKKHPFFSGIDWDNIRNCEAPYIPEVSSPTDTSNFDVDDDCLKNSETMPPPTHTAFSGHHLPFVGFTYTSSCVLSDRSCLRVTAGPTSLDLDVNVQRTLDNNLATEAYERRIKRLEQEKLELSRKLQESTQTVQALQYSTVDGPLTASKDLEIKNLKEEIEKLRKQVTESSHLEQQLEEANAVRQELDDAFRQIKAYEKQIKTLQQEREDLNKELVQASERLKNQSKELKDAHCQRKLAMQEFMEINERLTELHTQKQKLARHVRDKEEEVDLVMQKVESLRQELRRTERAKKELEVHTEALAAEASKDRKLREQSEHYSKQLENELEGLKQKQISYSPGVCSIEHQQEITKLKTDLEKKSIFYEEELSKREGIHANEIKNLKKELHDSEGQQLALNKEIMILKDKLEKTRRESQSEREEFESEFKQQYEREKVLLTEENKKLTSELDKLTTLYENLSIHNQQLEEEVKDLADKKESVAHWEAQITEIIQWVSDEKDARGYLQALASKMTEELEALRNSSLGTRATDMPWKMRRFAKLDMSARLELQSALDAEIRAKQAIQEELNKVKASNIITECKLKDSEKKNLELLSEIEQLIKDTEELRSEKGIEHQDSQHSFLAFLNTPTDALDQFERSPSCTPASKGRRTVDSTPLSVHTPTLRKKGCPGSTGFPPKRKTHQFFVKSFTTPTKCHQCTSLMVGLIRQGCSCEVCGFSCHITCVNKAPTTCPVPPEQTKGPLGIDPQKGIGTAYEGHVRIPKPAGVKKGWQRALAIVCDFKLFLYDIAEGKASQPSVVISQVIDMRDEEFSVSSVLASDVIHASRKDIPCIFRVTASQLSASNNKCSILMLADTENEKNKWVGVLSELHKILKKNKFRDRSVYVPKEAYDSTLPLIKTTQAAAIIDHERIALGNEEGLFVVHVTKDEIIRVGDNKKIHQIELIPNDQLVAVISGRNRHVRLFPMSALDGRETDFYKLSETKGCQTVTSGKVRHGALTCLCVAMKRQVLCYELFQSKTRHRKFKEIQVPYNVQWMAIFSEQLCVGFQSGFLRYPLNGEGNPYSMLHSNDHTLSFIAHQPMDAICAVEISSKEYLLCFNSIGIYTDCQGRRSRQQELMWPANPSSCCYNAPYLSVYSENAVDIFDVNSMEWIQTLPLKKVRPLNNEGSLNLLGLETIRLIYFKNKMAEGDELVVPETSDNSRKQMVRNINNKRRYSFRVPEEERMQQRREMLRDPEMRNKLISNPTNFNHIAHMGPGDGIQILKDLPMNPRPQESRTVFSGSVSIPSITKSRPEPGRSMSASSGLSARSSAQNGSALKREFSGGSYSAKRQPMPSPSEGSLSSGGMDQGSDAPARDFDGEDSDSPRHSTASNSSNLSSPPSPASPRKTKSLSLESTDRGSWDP

# Series 1
# SMILES: O=C(Nc1ccccc1)Nc1cccc(Oc2ccc3nccn3n2)c1
# Concentration: 1 µM
target,method,refers to,notes,reference,remaining binding [%]
"Serine/threonine-protein kinase D3 (PRKD3, Homo sapiens, UniProt O94806)",competitive binding panel,,,vehicle,100
"Dual specificity protein kinase TTK (TTK, Homo sapiens, UniProt P33981)",competitive binding panel,,,vehicle,100
"Mitogen-activated protein kinase 15 (MAPK15, Homo sapiens, UniProt Q8TD08)",competitive binding panel,ERK8,,vehicle,100
"Tyrosine-protein kinase receptor UFO (AXL, Homo sapiens, UniProt P30530)",competitive binding panel,,,vehicle,93
"Receptor-type tyrosine-protein kinase FLT3 (FLT3, Homo sapiens, UniProt P36888)",competitive binding panel,,,vehicle,96
"Dual specificity mitogen-activated protein kinase kinase 2 (MAP2K2, Homo sapiens, UniProt P36507)",competitive binding panel,MEK2,,vehicle,100
"Mitogen-activated protein kinase kinase kinase 9 (MAP3K9, Homo sapiens, UniProt P80192)",competitive binding panel,MLK1,,vehicle,100
"Serine/threonine-protein kinase TAO3 (TAOK3, Homo sapiens, UniProt Q9H2K8)",competitive binding panel,,,vehicle,100
"Mast/stem cell growth factor receptor Kit (KIT, Homo sapiens, UniProt P10721, T670I/V559D)",competitive binding panel,,,vehicle,80
"Calcium/calmodulin-dependent protein kinase type II subunit beta (CAMK2B, Homo sapiens, UniProt Q13554)",competitive binding panel,,,vehicle,100
"Serine/threonine-protein kinase PLK4 (PLK4, Homo sapiens, UniProt O00444)",competitive binding panel,,,vehicle,100
"High affinity nerve growth factor receptor (NTRK1, Homo sapiens, UniProt P04629)",competitive binding,,TRKA,,100
"Serine/threonine-protein kinase 36 (STK36, Homo sapiens, UniProt Q9NRP7)",competitive binding panel,,,vehicle,100
"Tyrosine-protein kinase Fes/Fps (FES, Homo sapiens, UniProt P07332)",competitive binding panel,,,vehicle,100

# Series 2
# Target: Serine/threonine-protein kinase Sgk3 (SGK3, Homo sapiens, UniProt Q96BR1)
# Effect on: enzyme activity
# Mode: inhibitor
# Concentration: 0.5 µM
# Reference: control
# Construct (Q96BR1 1-496): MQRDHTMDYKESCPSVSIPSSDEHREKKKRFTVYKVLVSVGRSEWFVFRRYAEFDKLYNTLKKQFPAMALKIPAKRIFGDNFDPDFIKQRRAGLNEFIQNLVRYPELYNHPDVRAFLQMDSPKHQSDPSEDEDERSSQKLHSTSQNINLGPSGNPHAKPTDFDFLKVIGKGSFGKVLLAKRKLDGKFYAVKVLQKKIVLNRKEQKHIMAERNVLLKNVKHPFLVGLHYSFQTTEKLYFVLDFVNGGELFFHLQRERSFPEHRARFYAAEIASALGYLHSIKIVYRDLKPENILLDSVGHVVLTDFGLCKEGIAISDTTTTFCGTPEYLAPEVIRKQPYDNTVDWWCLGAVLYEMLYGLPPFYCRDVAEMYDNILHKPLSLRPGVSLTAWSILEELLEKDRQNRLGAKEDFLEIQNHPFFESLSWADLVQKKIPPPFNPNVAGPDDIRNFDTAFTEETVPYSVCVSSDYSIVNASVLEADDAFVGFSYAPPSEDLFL
Compound,remaining activity
CCN(CC)CCCCN1c2ccccc2Oc2ccc(Cl)cc21,101%
O=Nc1c(-c2c(O)[nH]c3ccccc23)[nH]c2ccccc12,102%
N#C/C(=C(/N)SC1C=CC=CC1)c1cccc(C(O)c2ccncc2)c1 (stereo not shown),102%
CC(C)n1cnc2c(Nc3cccc(Cl)c3)nc(NCCO)nc21,97.1%
CCCCc1c(-c2ccc(O)cc2)[nH]c2nccnc12,95.3%
O=C1NC(=O)/C(=C/c2ccc3c(c2)OC(F)(F)O3)S1,94.7%
C[C@@H](N)[C@H]1CC[C@H](C(=O)Nc2ccncc2)CC1,98.4%
FC(F)(F)c1ccc(/C=C/c2nc(COc3ccc(CCCCn4ccnn4)cc3)co2)cc1,89.2%
NC(=O)c1ccc(-c2nc(-c3ccc4c(c3)OCCO4)c(-c3ccccn3)[nH]2)cc1,98.1%
COc1cc2c(Nc3ccc(Br)cc3F)ncnc2cc1OCC1CCN(C)CC1,97.9%
Clc1ccc(Nc2nnc(Cc3ccncc3)c3ccccc23)cc1,99.2%
COc1cc2c(N3CCN(C(=O)Nc4ccc(OC(C)C)cc4)CC3)ncnc2cc1OCCCN1CCCCC1,102%

# Series 3
# Compound: C[C@@H](c1cccc(C#N)c1)n1cc(Cl)cc(C(N)=O)c1=N
# Effect on: cell-free assay
# Method: competition with immobilised ligand
# Concentration: 1 µM
target,remaining binding
"Hepatocyte growth factor receptor (MET, Homo sapiens, UniProt P08581, Y1235D)",100%
"Serine/threonine-protein kinase MRCK alpha (CDC42BPA, Homo sapiens, UniProt Q5VT25)",100%
"Tyrosine-protein kinase ABL1, phosphorylated (ABL1, Homo sapiens, UniProt P00519, Y253F)",85%
"Atypical kinase COQ8B, mitochondrial (COQ8B, Homo sapiens, UniProt Q96D53)",88%
"Glycogen synthase kinase-3 alpha (GSK3A, Homo sapiens, UniProt P49840)",82%
"Mitogen-activated protein kinase 4 (MAPK4, Homo sapiens, UniProt P31152)",90%
"Casein kinase I isoform epsilon (CSNK1E, Homo sapiens, UniProt P49674)",100%
"MAP kinase-interacting serine/threonine-protein kinase 2 (MKNK2, Homo sapiens, UniProt Q9HBH9)",100%
"RAC-beta serine/threonine-protein kinase (AKT2, Homo sapiens, UniProt P31751)",93%
"Tyrosine-protein kinase HCK (HCK, Homo sapiens, UniProt P08631)",91%
"Protein kinase C iota type (PRKCI, Homo sapiens, UniProt P41743)",93%
"Ribosomal protein S6 kinase alpha-2, N-terminal kinase domain (RPS6KA2, Homo sapiens, UniProt Q15349)",93%
"Dual specificity protein kinase CLK4 (CLK4, Homo sapiens, UniProt Q9HAZ1)",100%
"Peripheral plasma membrane protein CASK (CASK, Homo sapiens, UniProt O14936)",79%
"Serine/threonine-protein kinase WNK4 (WNK4, Homo sapiens, UniProt Q96J92)",98%

# Series 4
# Target: Calcium/calmodulin-dependent protein kinase type II subunit alpha (CAMK2A, Homo sapiens, UniProt Q9UQM7)
# Chain of UniProt Q9UQM7 (whole entry, looked up): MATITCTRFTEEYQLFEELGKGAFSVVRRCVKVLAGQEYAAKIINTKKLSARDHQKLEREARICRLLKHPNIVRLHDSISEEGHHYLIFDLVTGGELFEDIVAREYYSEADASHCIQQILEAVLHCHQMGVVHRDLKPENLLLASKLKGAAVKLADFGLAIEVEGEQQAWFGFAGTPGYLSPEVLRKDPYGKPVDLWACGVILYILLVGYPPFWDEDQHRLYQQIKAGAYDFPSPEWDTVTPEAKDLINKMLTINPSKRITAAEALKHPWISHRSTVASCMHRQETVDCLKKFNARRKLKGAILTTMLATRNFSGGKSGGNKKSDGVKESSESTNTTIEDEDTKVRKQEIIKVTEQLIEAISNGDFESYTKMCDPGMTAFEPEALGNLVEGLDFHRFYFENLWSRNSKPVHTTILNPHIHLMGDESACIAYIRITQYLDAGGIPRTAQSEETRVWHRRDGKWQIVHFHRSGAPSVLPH
# Effect on: enzyme activity
# Mode: inhibitor
# Concentration: 10 µM
SMILES,inhibition [%]
CC(=O)O[C@@H]1CC[C@@]2(C)[C@@H](CC[C@]3(C)[C@@H]2[C@H](O)C=C2[C@@H]4[C@@H](C)[C@H](C)CC[C@]4(C)CC[C@]23C)[C@@]1(C)C(=O)O,12
COc1ccc2c(c1OC)O[C@H]1c3ccc(O[C@@H]4O[C@H](CO)[C@@H](O)[C@H](O)[C@H]4O)cc3OC[C@@H]21,2
Cc1cn([C@@H]2O[C@H](CO)[C@@H](O)[C@H]2O)c(=O)[nH]c1=O,6
C=C1c2cccc(O)c2C(O)=C2C(=O)[C@]3(O)C(O)=C(C(N)=O)C(=O)[C@@H](N(C)C)[C@@H]3[C@@H](O)[C@H]12,-6
CC/C=C\C/C=C\C/C=C\C/C=C\C/C=C\CCCCCC(=O)O,5
O=C(CCc1ccc(O)cc1)c1c(O)cc(O)cc1O,36
COc1ccc(-c2cc(=O)c3c(O)cc(O[C@@H]4O[C@H](CO)[C@@H](O)[C@H](O)[C@H]4O)cc3o2)cc1O,33
C[C@H](O)[C@H](O)[C@@H](O)[C@@H](O)C=O,-26
COc1cccc(O)c1C(=O)O,50
CC1(C)Oc2cc3oc(=O)ccc3cc2C[C@@H]1O,-35
Cc1ccc2nc(C)ccc2c1,20
CCN1CCN(C(=O)N[C@@H](C(=O)N[C@@H]2C(=O)N3[C@@H]2SC(C)(C)[C@@H]3C(=O)O)c2ccccc2)C(=O)C1=O,4
CC(=O)O[C@]1(C)CC[C@@]23C[C@@H]1C(C)(C)[C@@H]2CC[C@H]3C,21
Cn1nnnc1SCC1=C(C(=O)O)N2C(=O)[C@@H](NC(=O)[C@H](O)c3ccccc3)[C@H]2SC1,-1
C[C@@H]1O[C@@H](O[C@H]2[C@H](Oc3cc(O)c4c(c3)O[C@H](c3ccc(O)cc3)CC4=O)O[C@H](CO)[C@@H](O)[C@@H]2O)[C@H](O)[C@H](O)[C@H]1O,2
C[C@H]1[C@H](C)CC[C@]2(C(=O)O)CC[C@]3(C)C(=CC[C@@H]4[C@@]5(C)CC[C@H](O)C(C)(C)[C@@H]5CC[C@]43C)[C@H]12,-6
O=C(O)CC(=O)C(=O)O,-15
O[C@@H](c1cc(C(F)(F)F)nc2c(C(F)(F)F)cccc12)[C@H]1CCCCN1,4
CNC(=O)c1ccc(N2C(=S)N(c3ccc(C#N)c(C(F)(F)F)c3)C(=O)C2(C)C)cc1F,-16
CCCCCCCCCCCC1=C(O)C(=O)C=C(O)C1=O,-28
O=C(O)c1cccc(Oc2ccccc2)c1,-15
Cc1cc(-c2ccccc2)nnc1NCCN1CCOCC1,8
O=C(O)C[C@@H]1CC[C@H](NC(=O)Cc2cccs2)B(O)O1,3

# For quick reference, copied from above (series 4):
SMILES,inhibition [%]
Cc1cc(-c2ccccc2)nnc1NCCN1CCOCC1,8
COc1cccc(O)c1C(=O)O,50
Cn1nnnc1SCC1=C(C(=O)O)N2C(=O)[C@@H](NC(=O)[C@H](O)c3ccccc3)[C@H]2SC1,-1
Cc1cn([C@@H]2O[C@H](CO)[C@@H](O)[C@H]2O)c(=O)[nH]c1=O,6
C=C1c2cccc(O)c2C(O)=C2C(=O)[C@]3(O)C(O)=C(C(N)=O)C(=O)[C@@H](N(C)C)[C@@H]3[C@@H](O)[C@H]12,-6
Cc1ccc2nc(C)ccc2c1,20
CNC(=O)c1ccc(N2C(=S)N(c3ccc(C#N)c(C(F)(F)F)c3)C(=O)C2(C)C)cc1F,-16
CC/C=C\C/C=C\C/C=C\C/C=C\C/C=C\CCCCCC(=O)O,5
